Experimental data of several laboratories.
Lines come from different studies, so protocols differ.

| SMILES | test | system | conditions | quantity | value |
| --- | --- | --- | --- | --- | --- |
| COc1cc(C(=O)NC2CCN(C)CC2)c(F)cc1Nc1ncc(C(F)(F)F)c(Oc2cccc3c2C(=O)N(C)C3)n1 | – | human, plasma | oral, 300 mg, multiple doses, once daily, patients | Vd/F | 200 L |
| c1ccc(-c2nc(NCCn3ccnc3)c3ccccc3n2)nc1 | metabolic stability | mouse, liver microsomes | – | microsomal CLint | 52 µL/min/mg |
| CCC(C)n1ncn(-c2ccc(N3CCN(c4ccc(OCC5COC(Cn6cncn6)(c6ccc(Cl)cc6Cl)O5)cc4)CC3)cc2)c1=O (stereo not shown) | metabolic stability | human, hepatocytes | 0.5 µM, pH 7.4 | hepatocyte CLint | 36.6 µL/min/10⁶ cells |
| O=c1c2cc(F)c(Oc3ccc(OC(F)(F)F)cc3)cc2[nH]c2cc(Cl)cc(F)c12 | metabolic stability | mouse, liver microsomes | 1 µM, pH 7.4 | microsomal CLint | 4.66 µL/min/mg |
| N=C(N)c1ccc(OCCCCCCCOc2ccc(C(=N)N)cc2)cc1 | haemolysis | sheep | 200 µg/mL, 1 h | haemolysis | 0.3% |
| COc1ccc([C@@H](O)c2cc(-c3ncnc4cc(N5CCOCC5)ccc34)c(F)cc2Cl)nn1 | – | human, plasma | oral, 150 mg, multiple doses, once daily, patients | Cmax | 1220 ng/mL |
| CC[C@@](N)(c1cnc(C(F)(F)F)c(Cl)c1)c1c2ccn(C3CC3)c(=O)c2nn1C | metabolic stability | male Sprague-Dawley rat, hepatocytes | 0.5 µM, pH 7.4 | hepatocyte CLint | 0.8 µL/min/10⁶ cells |
| NCc1cc2c(cc1F)C(=O)N(C1CCC(=O)NC1=O)C2 (stereo not shown) | – | male cynomolgus monkey, plasma | oral, 0.3 mg/kg, 15 min | concentration | 0.45 ng/mL |
| CCCCCOC(=O)Nc1nc(=O)n([C@@H]2O[C@H](C)[C@@H](O)[C@H]2O)cc1F | – | Caco-2 | 4 h | efflux ratio | 4.42 |
| COc1cc2c3c(n(CCCN4CCOCC4)c(=O)c2cc1OC)-c1cc2c(cc1C3=O)OCO2 | – | female beagle dog, plasma | intravenous, 10 mg/m², infusion | AUC(0-inf) | 262 ng·h/mL |
| COCC(=O)N1CCC[C@H](C(=O)NCc2nc(-c3ccccc3)cs2)C1 | metabolic stability | male Sprague-Dawley rat, liver microsomes | 0.5 µM | scaled CLint | 34 mL/min/kg |
| COc1ccc(NC(=O)Nc2ccc3c(c2)S(=O)(=O)C=C3)cc1 | – | PAMPA-BBB | pH 7.4 | Papp | 19.4 ×10⁻⁶ cm/s |
| COc1ccc2c(c1)CN(C(=O)CCN1CCC(Cc3ccccc3)CC1)CC[S@@+]2[O-] | – | male human, plasma | intravenous, 0.01 mg/kg, healthy volunteers | Vd | 75.2 L |
| COCC(=O)N1CCC[C@H](C(=O)NCc2nc(-c3ccc(C)cc3)cs2)C1 | metabolic stability | human, liver microsomes | 0.5 µM | microsomal CLint | 24 µL/min/mg |
| COc1ccc2c(=O)n(C)c(-c3ccccc3)nc2c1 | – | male Sprague-Dawley rat, plasma | oral, 30 mg/kg, 4 h | concentration | 5.95 ng/mL |
| Fc1cccc(Nc2nc(-c3ccccn3)nc3ccccc23)c1 | metabolic stability | mouse, liver microsomes | – | microsomal CLint | 215 µL/min/mg |
| COc1cccc(-c2n[nH]c(SCc3ccccn3)n2)c1OC | – | male Sprague-Dawley rat, plasma | intravenous, 1 mg/kg, 4.98 min, single dose | concentration | 6460 ng/mL |
| O=C(O)C1CCN(c2nc(-c3ccccn3)nc3ccccc23)C1 (stereo not shown) | – | PAMPA | 10 µM, 3 h, pH 7.4 | Papp | < 0.1 ×10⁻⁶ cm/s |
| Cn1nc2c(=O)n(C3CC3)ccc2c1[C@](O)(c1cnc(C(F)(F)F)c(Cl)c1)C(F)(F)F | metabolic stability | male Sprague-Dawley rat, hepatocytes | 0.5 µM, pH 7.4 | hepatocyte CLint | 0.6 µL/min/10⁶ cells |
| COc1ccc(C[C@@H](C)[C@@H](C)Cc2ccc(OC)c(OC)c2)cc1OC | – | male beagle dog, plasma | oral, 1000 mg/kg/day, multiple doses, once daily | AUC(0-t) | 17800 ng·h/mL |
| O=C1CC[C@H](N2Cc3cc(N4CCN(CC5CCN(c6ccc([C@@H]7c8ccc(O)cc8CC[C@@H]7c7ccccc7)cc6)CC5)CC4)ccc3C2=O)C(=O)N1 | – | male Sprague-Dawley rat, plasma | oral, 20 mg/kg, fasted | AUC(0-t) | 6110 ng·h/mL |
| CC(C)(C)c1ccc(O)c(CN(Cc2cc(C(C)(C)C)ccc2O)C2CCC(NC(N)=O)CC2)c1 (stereo not shown) | – | male C57BL/6 mouse, brain | intraperitoneal, 25 mg/kg, single dose | tissue/plasma ratio | 0.99 |
| N=C(N)c1ccc(OCc2ccc(-c3ccccc3)cc2COc2ccc(C(=N)N)cc2)cc1 | haemolysis | sheep | 200 µg/mL, 1 h | haemolysis | 30% |

| SMILES | test | system | conditions | quantity | value |
| --- | --- | --- | --- | --- | --- |
| O=c1cc(-c2ccc(O)cc2)oc2c([C@@H]3O[C@H](CO)[C@@H](O)[C@H](O)[C@H]3O)c(O)cc(O)c12 | – | Caco-2 | 100 µg/mL | efflux ratio | 1.21 |
| CCOC(=O)[C@@]12C[C@@H]1[C@@H](n1ccc3c(NC)nc(C#Cc4ccc(Cl)s4)nc31)[C@H](O)[C@@H]2O | – | male Sprague-Dawley rat, plasma | oral, 10 mg/kg, 2 h | concentration | 79 ng/mL |
| CCn1cc(C)c2c([C@H](O)c3ccc(C(F)(F)F)nc3)n(C)nc2c1=O | metabolic stability | human, hepatocytes | 0.5 µM, pH 7.4 | hepatocyte CLint | 1.8 µL/min/10⁶ cells |
| O=C(c1ccc(F)cc1)C1CCN(CCn2c(=O)[nH]c3ccccc3c2=O)CC1 | metabolic stability, mass spectrometry | human, liver microsomes | 45 min | compound remaining | 39.8% |
| CCN1CCN(Cc2ccc(NC(=O)c3ccc(C)c(NC(=O)c4cncc(-c5cccs5)c4)c3)cc2C(F)(F)F)CC1 | – | mouse, plasma | intraperitoneal, 10 mg/kg, single dose | CL/F | 138 mL/min/kg |
| N#C[C@@]1(c2ccc3c(N)ncnn23)O[C@H](CO)[C@@H](O)[C@H]1O | – | monkey, plasma | – | fraction unbound | 0.819 |
| Cn1ccnc1-c1nc(N2CCCCC2)c2ccccc2n1 | metabolic stability | mouse, liver microsomes | – | microsomal CLint | 241 µL/min/mg |
| Nc1ccc(C=Cc2ccc([125I])cc2)cc1 | – | Swiss mouse, brain | intravenous, 5 µCi, 1 h | tracer uptake | 2.05 %ID/g |
| N#C[C@@]12C[C@@H]1[C@@H](n1cnc3c(N[C@@H](C4CCC4)C4CC4)nc(I)nc31)[C@H](O)[C@@H]2O | – | male Wistar rat, plasma | oral, 3 mg/kg | MRT(0-t) | 1.75 h |
| CCCCNC(=O)NS(=O)(=O)c1ccc(C)cc1 | metabolic stability | Sprague-Dawley rat, hepatocytes | 0.5 µM, pH 7.4 | hepatocyte CLint | 3.3 µL/min/10⁶ cells |
| COc1ccc([C@@H]2CN(C(=O)[C@@H](O)CO)C[C@@]2(C)[C@@H](C)O)cc1OC1CN(c2ccc(C)cn2)C1 | – | human, plasma | oral, 20 mg, single dose, healthy volunteers | Vd/F | 57.1 L |
| c1ccc(C2CCN(c3nc(-c4ccn[nH]4)nc4ccccc34)C2)nc1 (stereo not shown) | metabolic stability | mouse, liver microsomes | – | microsomal CLint | 268 µL/min/mg |
| COc1ccc(CNc2nc(-c3ccc(C(=O)O)cc3)nc3sc4ccccc4c23)cc1Cl | – | – | – | logP | 7.47 |
| CC(=O)[O-].CC(=O)[O-].CC(=O)[O-].[177Lu+3] | – | mouse, liver | 1 h | tracer uptake | 72 %ID/g |
| CCc1cc(-c2noc(-c3cc(OC)nc(C4CCCC4)c3)n2)cc(C)c1OC[C@@H](O)CO | – | Wistar rat, plasma | oral, 10 mg/kg, 6 h, single dose | concentration | 869 ng/mL |
| O=c1c2ccc(OCc3cccc(OC(F)(F)F)c3)cc2[nH]c2cc(Cl)cc(F)c12 | metabolic stability | mouse, liver microsomes | 1 µM, pH 7.4 | microsomal CLint | 3.55 µL/min/mg |
| FC(F)(F)c1ccccc1-c1nc(N2CCC(c3ccccn3)C2)c2ccccc2n1 (stereo not shown) | – | PAMPA | 10 µM, 3 h, pH 7.4 | Papp | 38 ×10⁻⁶ cm/s |
| Nc1ccc(-c2nc([C@H]3CCc4cc(-c5cc(Cl)ccc5-n5cnnn5)cc(=O)n43)c(F)[nH]2)c(F)n1 | – | human, plasma | oral, 80 mg, single dose, fed | Cmax | 537 ng/mL |
| O=C(Nc1ccc(CN2CCOCC2)c(C(F)(F)F)c1)c1ccc(C#Cc2cccc3cnccc23)cn1 | metabolic stability | mouse, liver microsomes | 1 h | compound remaining | 4.95% |
| N#CC1CCN(c2nc(-c3ccccn3)nc3ccccc23)C1 (stereo not shown) | metabolic stability | mouse, liver microsomes | – | microsomal CLint | 183 µL/min/mg |
| N=C(N)c1ccc(OCCS(=O)(=O)CCOc2ccc(C(=N)N)cc2)cc1 | haemolysis | sheep | 200 µg/mL, 1 h | haemolysis | 0.2% |
| CCn1ccc2c([C@@](O)(CC)c3ccc(C(F)(F)F)nc3)n(C)nc2c1=O | metabolic stability | male Sprague-Dawley rat, hepatocytes | 0.5 µM, pH 7.4 | hepatocyte CLint | 4.5 µL/min/10⁶ cells |
| O=C(COc1ccc(Cl)cc1)NC12CC(c3nnc([C@H]4C[C@@H](OC(F)(F)F)C4)o3)(C1)C2 | – | human, plasma | oral, 45 mg, multiple doses, once daily, steady state, healthy volunteers | Cmax | 2590 nM |
